{"data": "Results gathered from unrelated publications", "note": "A part holds a random share of what one study measured. Substitutions count along the parent as printed."}
{"data": "Study 1", "target": "CCNB1, cyclin fold, Cln2 fusion (human)", "technique": "yeast growth competition, sequencing", "matrix": "yeast", "notes": "weak parent motif", "baseline": "not given", "reading": "higher = stronger binding", "starting sequence": "SCAPER docking peptide (human); SNARRSLNFGGST"}
{"Substitution": "SNARRSLNFGIST [G11I]", "normalised enrichment score": 0.275}
{"Substitution": "SNARRHLNFGGST [S6H]", "normalised enrichment score": 1.04}
{"Substitution": "SNAKRSLNFGGST [R4K]", "normalised enrichment score": 0.606}
{"Substitution": "SNARRSLNFHGST [G10H]", "normalised enrichment score": 0.864}
{"Substitution": "SNARRSLNFAGST [G10A]", "normalised enrichment score": 0.473}
{"Substitution": "SNARRSLYFGGST [N8Y]", "normalised enrichment score": 0.181}
{"Substitution": "SNARRSLNFGRST [G11R]", "normalised enrichment score": -0.353}
{"Substitution": "SNARRSLNFGGSQ [T13Q]", "normalised enrichment score": 0.253}
{"Substitution": "SNARRFLNFGGST [S6F]", "normalised enrichment score": 1.36}
{"Substitution": "SNARRTLNFGGST [S6T]", "normalised enrichment score": 0.185}
{"Substitution": "SNARRRLNFGGST [S6R]", "normalised enrichment score": 1.11}
{"Substitution": "SNARKSLNLGGST [R5K F9L]", "normalised enrichment score": -0.0261}
{"data": "Study 2", "Molecule": "PhoQ, residues 284 288 289 292 302 303 GNNTDL", "technique": "Sort-seq", "measured": "YFP reporter", "matrix": "E. coli", "notes": "PhoQ-PhoP variant library", "together with": "10 µM Mg2+", "baseline": "high Mg2+ state", "reading": "higher = stronger signaling"}
{"target": "PhoP, residues 12 14 15 18 19 ICWRQ (Escherichia coli, UniProt P23836)", "fold induction": 6.53}
{"target": "PhoP, residues 12 14 15 18 19 VHTVL (Escherichia coli, UniProt P23836)", "fold induction": 2.78}
{"target": "PhoP, residues 12 14 15 18 19 TQCLL (Escherichia coli, UniProt P23836)", "fold induction": 1.75}
{"data": "Study 3", "target": "ABI1, truncated, D143A, DHFR fusion (Arabidopsis thaliana)", "technique": "DHFR PCA, deep sequencing", "matrix": "yeast", "notes": "methotrexate growth selection, single substitutions", "together with": "(+)-ABA 1.4 µM", "baseline": "wild-type fitted maximum", "reading": "higher = stronger binding", "starting sequence": "PYL1, truncated, DHFR fusion (Arabidopsis thaliana); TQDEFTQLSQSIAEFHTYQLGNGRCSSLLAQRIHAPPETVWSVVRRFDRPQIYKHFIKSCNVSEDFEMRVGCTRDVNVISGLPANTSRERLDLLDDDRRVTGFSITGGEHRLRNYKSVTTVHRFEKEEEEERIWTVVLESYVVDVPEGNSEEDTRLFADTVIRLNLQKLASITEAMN; partner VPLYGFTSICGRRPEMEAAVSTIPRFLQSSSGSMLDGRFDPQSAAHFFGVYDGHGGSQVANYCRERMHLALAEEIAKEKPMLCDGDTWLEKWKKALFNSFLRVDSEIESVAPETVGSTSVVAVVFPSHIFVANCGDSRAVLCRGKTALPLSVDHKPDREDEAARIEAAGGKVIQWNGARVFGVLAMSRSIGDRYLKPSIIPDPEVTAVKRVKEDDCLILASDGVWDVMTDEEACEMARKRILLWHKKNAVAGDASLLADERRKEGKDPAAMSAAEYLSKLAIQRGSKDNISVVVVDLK"}
{"Substitution": "D159P", "relative binding score [%]": -18.8}
{"Substitution": "V40A", "relative binding score [%]": 18.8}
{"Substitution": "D97I", "relative binding score [%]": 45.8}
{"Substitution": "S59H", "relative binding score [%]": 28.9}
{"Substitution": "R132W", "relative binding score [%]": 21.3}
{"data": "Study 4", "target": "RNA binding protein fox-1 homolog 2, RRM domain, GST-SBP tag (RBFOX2, Homo sapiens, UniProt O43251-10, residues 100-194)", "technique": "RNA Bind-n-Seq", "form": "RNA", "matrix": "in vitro", "concentration": "365 nM", "notes": "natural RNA segment, single round, ends assumed", "baseline": "no-protein control", "reading": "higher = stronger binding", "constant ends, left off below": "GGGAGUUCUACAGUCCGACGAUC … UGGAAUUCUCGGGUGCCAA", "Target sequence (chain)": "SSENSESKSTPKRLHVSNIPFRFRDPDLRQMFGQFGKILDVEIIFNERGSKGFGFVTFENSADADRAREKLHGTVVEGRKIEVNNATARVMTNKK"}
{"Strand": "CAGGCACUAACCUGGCACCUUUUACUCCAGCUGGUAGAGCUAGAGCUAAUGUGUACAGGUGUCCUGGAGCCCCAGCUUGCUGCCUGGGGUCUUCGGGGGGAGGGGGGCUU", "RBNS enrichment (R)": 0.578}
{"Strand": "GGGUAACAGCCUUGGGGAGGGUGCAGAGCUCUGCAGAGCCAUGGGCCAGGUGGGGCUGCCUCAGUCCUGUCCCCUUGGGCACUGAGGAGAGGGGCCCAUUCACCUUUCUC", "RBNS enrichment (R)": 0.335}
{"Strand": "GAAAAUUUAUGACUACCAAAUAUUUAGGAUACUUAGAAAUAUUUUACUACAUAUGAAUCUGAUAUUCUUAAUAAAGUAUUACUUUAAAUUUUCCAGCAGUAACAUUUAGA", "RBNS enrichment (R)": 0.486}
{"Strand": "UUUACAGACGAGAAAACUAAGGCACAAAGUUUAACUUGCCCCAAGCGACAGAGUGGAUAAGUAAAAGGGCGAGGACUGGGACCCUGGUACUCUGAAUGAAGAGCCUGUGC", "RBNS enrichment (R)": 0.661}
{"Strand": "CAGCAUCAGGGCAACCCACUUCAGUGUUCUCUUUUAAAAAUCAGUUCCUGCUGGGUGUGGUGGCGCAAGCCUUUAAUCCCUGCACUUGGGAGGCAGCUGCAGAUGGGAUU", "RBNS enrichment (R)": 0.277}
{"Strand": "CCCACUCAGCAUACACCCUCAAAAGACUCCCUCAGGAAACCACUAGUUCCUGUCACCUGCCCUCUGGUGUGUCCCUUGGCAAAUCUCUAUAGGAGGCCAAGUGUUAGCUA", "RBNS enrichment (R)": 0.604}
{"Strand": "AGAGGCUCAAGUGCCCUUGCCGAGUGUCCCCACUGCUCUUGGGGAGGCCCCGGCACAGCCCUGCAGAGAUGCAAGUAAGAGAGUGCCCAGUGCCCUCGGCAGAUGGGUGG", "RBNS enrichment (R)": 0.334}
{"Strand": "CUUUGUGGCUUUGGACCUGGACAGGAAGGUCCCACGGACCUUAUGUGAUGCGGGAGGCUCACAAACUUACAAAUCCAACUUUUAUUCUGAGGAACUUACUGUACAAUAUC", "RBNS enrichment (R)": 0.547}
{"Strand": "GUGGAAAGUAUCAGAGUAAGGCUCUCCCCUCCAGAGCCCUGAGUUUCUUGGCUGCAUGAAGGUUUUCUUUAGAAUCAGAAUUGUAGCCAGUUUCUUUGGCCAGAAGGAUG", "RBNS enrichment (R)": 0.287}
{"Strand": "GUUAUUGUAUUAAGUUUAUUCAGUUAAUUCACUUGAGGAACUAACCAGUUUUUACUUUCUGUCUAGAAUGAUGUACAUGUAGUAGAGUAAGCCAUAAUGCUCCCAAAGUG", "RBNS enrichment (R)": 0.345}
{"Strand": "GUAUGUCAAUAAAGCAAAUACUUACUGUUUUGUUUCUAUUAAUGAUUCCCAAACCUUGUUGCAAGUUUUUGCAUUGGCAUCUUUGGAUUUCAGUCUUGAUGUUUGUUCUA", "RBNS enrichment (R)": 1.21}
{"Strand": "AAUCCAUUUAUUUCAUUUACAAAAGAUUUAUUGUAAGCAUCUCAAUCUUGGUUUGUCAGUUUAUCUUAAGCAUGUCAAUUCAUAAAAACAAGUCAUUUUUGUAUUUUUCA", "RBNS enrichment (R)": 11.7}
{"note": "A few entries again (study 2):"}
{"target": "PhoP, residues 12 14 15 18 19 VHTVL (Escherichia coli, UniProt P23836)", "fold induction": 2.78}
{"target": "PhoP, residues 12 14 15 18 19 TQCLL (Escherichia coli, UniProt P23836)", "fold induction": 1.75}
{"target": "PhoP, residues 12 14 15 18 19 ICWRQ (Escherichia coli, UniProt P23836)", "fold induction": 6.53}
